{"data": "Measurements gathered from unrelated publications", "note": "Every numbered part comes from another study and shows a few of its results, in no order."}
{"data": "Block 1", "target": "Ras GTPase-activating protein-binding protein 1, RRM domain (G3BP1, Homo sapiens, UniProt Q13283)", "technique": "RNA Bind-n-Seq", "form": "RNA", "sample": "in vitro", "concentration": "1 µM", "notes": "whole 134-nt RNA, ends assumed", "together with": "150 mM KCl", "reference": "input library", "direction": "higher = stronger binding", "constant ends, left off below": "GGGAGUUCUACAGUCCGACGAUC … UGGAAUUCUCGGGUGUCAAGG", "chain of UniProt Q13283 (whole entry, looked up)": "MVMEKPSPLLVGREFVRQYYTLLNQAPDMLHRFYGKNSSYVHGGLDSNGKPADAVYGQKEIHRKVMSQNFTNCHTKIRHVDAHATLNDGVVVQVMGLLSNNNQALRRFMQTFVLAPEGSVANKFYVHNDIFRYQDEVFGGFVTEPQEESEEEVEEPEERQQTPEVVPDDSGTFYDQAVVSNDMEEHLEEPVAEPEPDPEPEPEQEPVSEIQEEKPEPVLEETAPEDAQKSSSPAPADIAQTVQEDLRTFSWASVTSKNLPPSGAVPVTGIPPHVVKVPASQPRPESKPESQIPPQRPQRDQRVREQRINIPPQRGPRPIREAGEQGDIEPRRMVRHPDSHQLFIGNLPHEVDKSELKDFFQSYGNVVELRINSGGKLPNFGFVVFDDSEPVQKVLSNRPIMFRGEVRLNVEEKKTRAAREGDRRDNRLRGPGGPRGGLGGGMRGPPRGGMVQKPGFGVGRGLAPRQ"}
{"Oligonucleotide": "CACAGACAACACGCACCCACACAGACACAGAGGGAAGGGGUUGGGAUGGGGAAAGGGUGCACAGCAGGGCGGGGUAGGACCCCAGCCCCU", "log2 enrichment": -0.0787}
{"Oligonucleotide": "CUCAAGUCCUGUGCUACACAUCGUAUGUACCGAAUCGGGCGGGGCGGGCGGGGAAAGUAUUAUGUUACGCCGUUCGGAUCUGCACUUCCA", "log2 enrichment": 0.53}
{"Oligonucleotide": "UUCCUCAAGUCCUGUGCUACACAUCGUAUGUACCGAAUCGGCGGCGGCGGAAAGUAUUAUGUUACGCCGUUCGGAUCUGCACUUCCAGCA", "log2 enrichment": -0.209}
{"Oligonucleotide": "UGUGCUACACAUCGUAUGUACCGAAUCGGGGAAAAAAAGGGAAAAAAAGGGGAAAAAAAGGGGAAAGUAUUAUGUUACGCCGUUCGGAUC", "log2 enrichment": 0.0491}
{"Oligonucleotide": "UCCUGUGCUACACAUCGUAUGUACCGAAUCAAACCCCCAAAUUUUUUUAAAUUUUUAAAAAAGUAUUAUGUUACGCCGUUCGGAUCUGCA", "log2 enrichment": -0.521}
{"Oligonucleotide": "UAUGGACAAGCAUAAUGGAACAGACAGGUUUGUGAACCAGCAGUUUCAAGAGGAAAAGUUAAAUAAAUUGCAGAAGUUACUUAUUCUUUU", "log2 enrichment": -0.0181}
{"Oligonucleotide": "UGGGAGGUGGAUUUUGUUUAUUUUUUUAGCUCAUUUCCAGGGGUGGGAAUCUUUUUUUAAUAUGUGUCAUGAAUAAAGUUGUUUUUGAAA", "log2 enrichment": 2.38}
{"Oligonucleotide": "GCCCUGUAAUCGUGGAGAUCCCGCACUUUGCCUCCCAUGGCCGUGGAGACCGCGAGCUCGUGGUUCUGAGGAGCGAAAACGGCUCCGUGU", "log2 enrichment": -0.607}
{"Oligonucleotide": "AGUCCUGUGCUACACAUCGUAUGUACCGAAUCGGGGAAAAGGAAAAGGGGAAAAGGGGAAAGUAUUAUGUUACGCCGUUCGGAUCUGCAC", "log2 enrichment": 0.228}
{"data": "Block 2", "target": "Centromere-binding protein 1, full length, N-terminal tag (CBF1, Saccharomyces cerevisiae, UniProt P17106, residues 1-351)", "technique": "protein-binding microarray", "form": "double-stranded DNA, one strand shown", "sample": "in vitro", "concentration": "0.8 µM", "notes": "whole 60-bp probe, no competitor", "direction": "higher = stronger binding", "constant ends, left off below": "… GTCTTGATTCGCTTGACGCTGCTG", "chain of UniProt P17106 (whole entry, looked up)": "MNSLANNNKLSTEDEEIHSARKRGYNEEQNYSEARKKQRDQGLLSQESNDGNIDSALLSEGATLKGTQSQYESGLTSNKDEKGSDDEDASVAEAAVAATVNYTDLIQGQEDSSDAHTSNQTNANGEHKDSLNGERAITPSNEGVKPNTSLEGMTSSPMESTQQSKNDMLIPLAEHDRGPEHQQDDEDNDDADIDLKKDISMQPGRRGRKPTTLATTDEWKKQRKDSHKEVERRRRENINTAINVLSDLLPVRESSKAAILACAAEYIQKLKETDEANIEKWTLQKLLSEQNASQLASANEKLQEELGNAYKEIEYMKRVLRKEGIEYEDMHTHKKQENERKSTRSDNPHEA"}
{"Oligonucleotide": "CTATATATTGCACAGGTGATTTTGATGTAGAATTTC", "fluorescence intensity [a.u.]": 887}
{"Oligonucleotide": "TGTACGAAGCTATTTCACGGGATTATAGTAGTTAGG", "fluorescence intensity [a.u.]": 594}
{"Oligonucleotide": "GAATCAAGTAGGTCCCTCGTGTCACATACGAGTTAG", "fluorescence intensity [a.u.]": 617}
{"Oligonucleotide": "TGTACGAAGCTATATCACGATCTTATAGTAGTTAGG", "fluorescence intensity [a.u.]": 610}
{"Oligonucleotide": "CTAACAGACATCGATCACATCTATAATAGGAGCTTC", "fluorescence intensity [a.u.]": 536}
{"Oligonucleotide": "CTACATCAACATTCTGTCACCTTGTTGATGCACTTC", "fluorescence intensity [a.u.]": 562}
{"Oligonucleotide": "GAACATAACAGGCGTGTCACCAATGATTAATGGTAG", "fluorescence intensity [a.u.]": 587}
{"Oligonucleotide": "GAATCTTTATGTAATTACGTGTGATACCTCCGATAG", "fluorescence intensity [a.u.]": 527}
{"Oligonucleotide": "CTAATCACGTTATCGTACGTGACCGAATGCCGTTTC", "fluorescence intensity [a.u.]": 3140}
{"Oligonucleotide": "CTAATTGAACCTAAGAGCGTGATATTTTTACTCTTC", "fluorescence intensity [a.u.]": 633}
{"Oligonucleotide": "CCTAACTACTATAGCCACGGTATATAGCTTCGTACA", "fluorescence intensity [a.u.]": 517}
{"Oligonucleotide": "CCTAACTACTATAGACACATAAAATAGCTTCGTACA", "fluorescence intensity [a.u.]": 532}
{"Oligonucleotide": "GAAGCATGGCCTGACAGCGTGGTGTTTGATGAATAG", "fluorescence intensity [a.u.]": 519}
{"Oligonucleotide": "GAAGTTATTGTGGATGCTGATGGCCGTGTATGGTAG", "fluorescence intensity [a.u.]": 525}
{"Oligonucleotide": "CTAGCTATCGGAGGTGGTCTGAGTTACTCGACATTC", "fluorescence intensity [a.u.]": 506}
{"Oligonucleotide": "CTAACGTGTTGAAATCACGATACTGGCATCCGATTC", "fluorescence intensity [a.u.]": 870}
{"Oligonucleotide": "TGTACGAAGCTATGTCACGTTCGTATAGTAGTTAGG", "fluorescence intensity [a.u.]": 1390}
{"Oligonucleotide": "GAAATCCGAGCTTGTCACCTTTAACTTACGTTTTAG", "fluorescence intensity [a.u.]": 514}
{"Oligonucleotide": "GAAAGGCGATATGATGGTGATGGTGACGGTGATTAG", "fluorescence intensity [a.u.]": 552}
{"data": "Block 3", "target": "RING finger protein unkempt homolog, zinc fingers 1-6, GST-SBP tag (UNK, Homo sapiens, UniProt Q9C0B0, residues 30-357)", "technique": "RNA Bind-n-Seq", "form": "RNA", "sample": "in vitro", "concentration": "not given", "notes": "RNA with constant flanks, human and mouse sites, ends assumed", "reference": "input RNA pool", "direction": "higher = stronger binding", "constant ends, left off below": "GGGAGUUCUACAGUCCGACGAUC … CAACAGAGGAUUGAGCAUCA", "Target sequence (chain)": "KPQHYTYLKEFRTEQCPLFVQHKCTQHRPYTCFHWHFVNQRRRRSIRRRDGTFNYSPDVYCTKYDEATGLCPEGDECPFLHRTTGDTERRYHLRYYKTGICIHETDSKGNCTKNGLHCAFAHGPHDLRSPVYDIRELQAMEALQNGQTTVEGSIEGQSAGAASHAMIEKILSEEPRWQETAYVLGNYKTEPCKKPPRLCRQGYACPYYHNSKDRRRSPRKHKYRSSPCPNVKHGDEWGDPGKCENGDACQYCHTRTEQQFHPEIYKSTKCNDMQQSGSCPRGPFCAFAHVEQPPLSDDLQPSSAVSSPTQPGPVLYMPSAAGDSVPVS"}
{"Oligonucleotide": "UGGCCACCUCCUCCUCAGAGUCUCUUCCCAAAAGAAUCCCCUAGCCAGGAUAAUGGGUGGCUUAGUAGAGGCUCAGGGAAGGAACAGGGAGAAGGGUGGCUGUGAGCUCAAGUCCCCCUC", "bound/input enrichment [ratio]": 0.0927}
{"Oligonucleotide": "CUUUCCCCAAAUAACAAUAUUUCAGAGGCUUUGAAAAAAUUUGGUAUCUCAGCAAAUGACACUUCAAUUCUAAUUGUUUACAUUGAAGAGGGAGAAAAACAAAUAAAUCAAGAAUACCUA", "bound/input enrichment [ratio]": 0.305}
{"Oligonucleotide": "UGUUAUUCUGAUGGCACCGCCGUUCACGAAAGCCAUGCAAAGAAUGCUUCUUUUUAUGCCAACUCUUCAACUCUGUAUUACCAAAUAGAUAGCCACAUUCCAGGAACUCCAAAUCAGAUC", "bound/input enrichment [ratio]": 1.01}
{"Oligonucleotide": "UAUAGUGUAAUAUAUAUAUAAUAGCUCUAAUUAUAAAUACACUUUUACUCUGGAAAAAGCAUAGACAUUGACAUAAGAGACAUUUAAAAACCAUUAUUUUCUCAUCUGUAAAAUGGAGAG", "bound/input enrichment [ratio]": 1.26}
{"Oligonucleotide": "AUCCAGGCCCUCCGCUGGGUGAGCGAGAAUAUUGCCUUCUUCGGGGGAGACCCCCGCCGGAUCACUGUCUUUGGCUCGGGCAUUGGUGCAUCCUGCGUCAGCCUCCUCACGUUGUCACAU", "bound/input enrichment [ratio]": 0.186}
{"Oligonucleotide": "GAGAUGCAUCCAGUGAUGUGAGGGGGACCUCUGGGGACUGUCAUUCUCAGUAUCAUGUAGGAAUUUAAAAAGCCAAAAUACUAAUUCUUUCUUUGUAGUGUGUAAGGGAGUGUUUUUAAA", "bound/input enrichment [ratio]": 3.42}
{"Oligonucleotide": "ACCUCCAGAAAGAAGAAUAUUGGCCCCUUGAAUUCUGGAAGUUCAUUGAAGAGUCUGAAAUUAGGGACUUAUUUCAAAUUUGGACAUGGCUAGUCGAGGCGCAACAAGACCCAACGGGCC", "bound/input enrichment [ratio]": 0.306}
{"Oligonucleotide": "GUUGGUCAAUUCUACUUCUUGAUCCGGAAGCGAAUUCAUCUCCGUGCUGAAGAUGCCUUGUUUUUCUUUGUCAACAAUGUCAUUCCACCCACCAGUGCCACGAUGGGUCAGCUGUACCAG", "bound/input enrichment [ratio]": 0.179}
{"data": "Block 4", "target": "Interferon regulatory factor 3, full length, phosphomimetic (IRF3, Homo sapiens, UniProt Q14653, residues 1-427, S386D/S396D/S398D/S402D/T404D/S405D)", "technique": "protein-binding microarray", "form": "double-stranded DNA, one strand shown", "sample": "in vitro", "concentration": "2540 nM top", "notes": "60-bp whole probe", "together with": "salmon DNA 0.4 mg/ml", "reference": "random background probes", "direction": "higher = stronger binding", "constant ends, left off below": "GCCTAGCAC … GTCTTGATTCGCTTGACGCTGCTG", "Residues (chain)": "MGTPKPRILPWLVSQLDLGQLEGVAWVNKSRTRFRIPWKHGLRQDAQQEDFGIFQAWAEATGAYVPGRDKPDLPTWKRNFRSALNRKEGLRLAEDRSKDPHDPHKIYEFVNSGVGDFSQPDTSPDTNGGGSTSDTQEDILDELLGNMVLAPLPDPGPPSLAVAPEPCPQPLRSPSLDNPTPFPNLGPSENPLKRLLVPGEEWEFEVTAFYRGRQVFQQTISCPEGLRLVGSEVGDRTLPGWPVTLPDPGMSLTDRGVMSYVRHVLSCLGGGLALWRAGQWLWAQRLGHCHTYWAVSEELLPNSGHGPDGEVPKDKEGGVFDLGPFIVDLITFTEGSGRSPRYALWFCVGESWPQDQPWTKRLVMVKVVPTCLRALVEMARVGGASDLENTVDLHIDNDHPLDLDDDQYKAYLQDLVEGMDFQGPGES"}
{"Oligonucleotide": "GACAGTTTCGGGTTTCGGGACGTGCTA", "fitted relative affinity": "5.94 z-score"}
{"Oligonucleotide": "TTAGGTCTCGCACTGGGTTAGTGCTAG", "fitted relative affinity": "-0.569 z-score"}
{"Oligonucleotide": "TTAGATATCAGTCTCGATAAGTGCTAG", "fitted relative affinity": "1.35 z-score"}
{"Oligonucleotide": "TCATCCTTTGCTTTCTCACTGTGCTAG", "fitted relative affinity": "0.872 z-score"}
{"Oligonucleotide": "TCAATGATCCAGTTTTACACTGTGCTA", "fitted relative affinity": "0.443 z-score"}
{"Oligonucleotide": "GACGGACTGGGTTTCGGGACGTGCTAG", "fitted relative affinity": "1.16 z-score"}
{"Oligonucleotide": "TTAGCTATCGGTTTCGGTTAGTGCTAG", "fitted relative affinity": "6.05 z-score"}
{"Oligonucleotide": "TCAAAAAAAAAAAACTGTACTGTGCTA", "fitted relative affinity": "-0.514 z-score"}
{"Oligonucleotide": "TCAAGTTTCTATTTTCTACTGTGCTAG", "fitted relative affinity": "4.63 z-score"}
{"Oligonucleotide": "GACGACCTGAGTCTCGAGACGTGCTAG", "fitted relative affinity": "-0.628 z-score"}
{"Oligonucleotide": "GACGGTCTCCTTTTCCTGACGTGCTAG", "fitted relative affinity": "4.52 z-score"}
{"Oligonucleotide": "TTAGGATTGGGGTTTCGGTTAGTGCTA", "fitted relative affinity": "2.6 z-score"}
{"Oligonucleotide": "TTAGATTTCGGGTATCCATTAGTGCTA", "fitted relative affinity": "1.92 z-score"}
{"Oligonucleotide": "CGGCTACCGCGGCTCCTACAGTGCTAG", "fitted relative affinity": "-0.667 z-score"}
{"Oligonucleotide": "CCACTTTCAGTTCTCCCTTTGTGCTAG", "fitted relative affinity": "6.23 z-score"}
{"Oligonucleotide": "TCACGTGACCCTCTCAAACTGTGCTAG", "fitted relative affinity": "0.113 z-score"}
{"Oligonucleotide": "TCAATTCGTCATTTCACACTGTGCTAG", "fitted relative affinity": "1.12 z-score"}
{"Oligonucleotide": "GACGCTATCGACTTTCGGGACGTGCTA", "fitted relative affinity": "0.4 z-score"}
{"Oligonucleotide": "TCCTGTGACGTTAAGGTCTCGTGCTAG", "fitted relative affinity": "-0.514 z-score"}
{"note": "Some of these lines once more (block 4):"}
{"Oligonucleotide": "TCAATTCGTCATTTCACACTGTGCTAG", "fitted relative affinity": "1.12 z-score"}
{"Oligonucleotide": "GACGCTATCGACTTTCGGGACGTGCTA", "fitted relative affinity": "0.4 z-score"}
{"Oligonucleotide": "TCCTGTGACGTTAAGGTCTCGTGCTAG", "fitted relative affinity": "-0.514 z-score"}
